Measurements pooled from the literature.
Numbered parts are unrelated; each lists some results of a single study. Positions count from the first letter of the parent shown.

Block 1 — technique: RNA Bind-n-Seq; form: RNA; medium: in vitro; concentration: not given; reference: input RNA pool; direction: higher = stronger binding
Target: RING finger protein unkempt homolog, zinc fingers 1-6, GST-SBP tag (UNK, Homo sapiens, UniProt Q9C0B0, residues 30-357)
Chain of UniProt Q9C0B0 (30-357, looked up): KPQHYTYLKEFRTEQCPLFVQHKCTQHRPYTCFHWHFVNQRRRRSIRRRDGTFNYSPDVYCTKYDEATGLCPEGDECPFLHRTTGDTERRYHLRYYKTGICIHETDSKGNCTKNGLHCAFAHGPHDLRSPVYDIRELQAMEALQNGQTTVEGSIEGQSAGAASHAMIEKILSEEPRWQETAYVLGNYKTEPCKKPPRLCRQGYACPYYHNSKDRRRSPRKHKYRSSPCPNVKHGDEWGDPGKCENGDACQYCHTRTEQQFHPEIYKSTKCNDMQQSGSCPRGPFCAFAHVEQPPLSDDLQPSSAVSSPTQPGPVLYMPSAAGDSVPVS
Setting: RNA with constant flanks, human-mouse chimeric sites, ends assumed
With `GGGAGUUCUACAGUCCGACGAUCUCAACUGACAACAUCAAAUACCAGCCUAAAGGGGGGCAGGUACAAAUUGUUACCAAGAAAAUAGACCUAAGCCAUGUGACAUCCAAAUGUGGCUCUCUGAAGAACAUCCGUCACAGGCCACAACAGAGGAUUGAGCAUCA` the bound/input enrichment was 0.476 ratio.
With `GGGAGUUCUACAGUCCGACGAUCCGGAGCCCUCCUCUCCCCCAGGCCCGAGAUAUAACCCACCAGUGCCUUUUGUCUUCCUGUCAGCUCUGUCAAUCACGCCUGUCCUCUGUCCCUCUCACCAAGUGCCCAAAGUGGGGAGGGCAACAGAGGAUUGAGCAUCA` the bound/input enrichment was 0.58 ratio.
With `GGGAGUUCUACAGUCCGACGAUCGUUCGGCUUUGGGAUCAUGCCACAAUGACAGAAGUGAAAUCUCUGAAUUUUAAUAUGUCUGUUAGUAGCAUGGAGUAUAUUCCUGAAGGAGAGAUUUUGGUUAUUACUUAUGGACGAUCUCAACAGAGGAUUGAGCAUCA` the bound/input enrichment was 0.26 ratio.
For `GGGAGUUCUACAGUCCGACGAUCAAAGAACCUCUCUCUGAUGAAGAUGAGGACAGUGAUGAUGAUGUUGAACCUAUUACUGAAUUUCGAUUUGUGCCCAGUGAUAAGUCAGCAUUGGAGGCGAUGUUCACAGCAAUGUGUGAGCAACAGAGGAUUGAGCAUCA`, the bound/input enrichment was 0.267 ratio.
For `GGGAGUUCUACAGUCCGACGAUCUGGGCACUCUAUCAGAUAGAUUACUUUUUUAAUGUAGAUGUAAUUUUAAAAAUGAAUGGCUACUUUACACGUUUAACUAGGGUUUUACUAUAUAUGUGUACAUAUGUAUAUAUAUAUAUACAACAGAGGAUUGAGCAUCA`, the bound/input enrichment was 62.5 ratio.
With `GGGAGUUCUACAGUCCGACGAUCUCUGGCCACACUCGUGUGUAUGGUGUUUGCUUUGUGGACACUUCACUGGGCAAGUUUUUCAUCGGCCAGUUUUCGGAUGAUCGCCAUUGUUCCAGAUUUAGGACGCUAGUGGCUCACUAUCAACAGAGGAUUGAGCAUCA` the bound/input enrichment was 0.212 ratio.
The bound/input enrichment of `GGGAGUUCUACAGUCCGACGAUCGUCAACAGUUGUCUCAACCCCAUCCUCUACGCCUUCCUGGAUGAGAACUUCAAGGCCUGCUUCCGCAAGUUCUGCUGUGCAUCUGCCCUGCGCCGGGACGUGCAGGUUUCUGAUCGUGUGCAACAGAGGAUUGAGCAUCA` is reported as 0.291 ratio.
With `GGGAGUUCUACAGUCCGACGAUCGGGACUGAUUCAUCCCAAGGACAGGCAGCCCAGUCUGAUGCCUGGACUGAUGACAGUAUGGAAGGGCCUAGUCAAAAUGUUGAAGCUGAGUCAAUUCAGGAUGCCAUGAGUAUGGAAGAGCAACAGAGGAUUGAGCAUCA` the bound/input enrichment was 0.298 ratio.

Block 2 — technique: RNA Bind-n-Seq; form: RNA; medium: in vitro; concentration: 20 nM; setting: 6-mer, flanks averaged, single round; together with: 150 mM KCl; reference: input library; direction: higher = stronger binding
Target: TAR DNA-binding protein 43, full length, His tag (TARDBP, Homo sapiens, UniProt Q13148, residues 1-414)
`UGCCCG`: “6-mer enrichment (R)” 0.744.
Under “6-mer enrichment (R)”, `UCUCCC` is recorded as 0.617.
`CGUUUA`: “6-mer enrichment (R)” 0.582.
For `GGGGAG`, “6-mer enrichment (R)” read 8.41.
For `CACUUA`, “6-mer enrichment (R)” read 0.579.
`CUAACU` — result for “6-mer enrichment (R)”: 0.581.
Under “6-mer enrichment (R)”, `AGUGCA` is recorded as 0.897.
`UUCAGC` — result for “6-mer enrichment (R)”: 0.613.

Block 3 — target: CCND1, cyclin fold, Cln2 fusion (human); technique: yeast growth competition, sequencing; medium: yeast; setting: strong parent motif; reference: not given; direction: higher = stronger binding; parent: viral docking peptide; YKVKRRLVFGADD
`YKTKRRLVFGADD [V3T]` — result for “normalised enrichment score”: 1.65.
For `YKVKRRLVFEADD [G10E]`, “normalised enrichment score” read 3.29.
`YKWKRRLVFGADD [V3W]` — result for “normalised enrichment score”: -0.0921.
For `YKVKRRLVFGEDD [A11E]`, “normalised enrichment score” read 4.01.
For `YKVKQRLVFGADD [R5Q]`, “normalised enrichment score” read 0.697.
`YKVGRRLVFGADD [K4G]`: “normalised enrichment score” 1.35.
For `YKVKERLVFGADD [R5E]`, “normalised enrichment score” read 0.358.
Under “normalised enrichment score”, `YKVKRRSVFGADD [L7S]` is recorded as 0.352.
`YKVKRRLVFGAYD [D12Y]` — result for “normalised enrichment score”: 0.756.
Under “normalised enrichment score”, `YKVKARAVFGADD [R5A L7A]` is recorded as 0.255.
Under “normalised enrichment score”, `YKVYRRLVFGADD [K4Y]` is recorded as 0.745.
Under “normalised enrichment score”, `YKVKRRLVFGAAD [D12A]` is recorded as 1.18.
For `YKVKRELVFGADD [R6E]`, “normalised enrichment score” read 1.11.
`YKVKWRLVFGADD [R5W]` — result for “normalised enrichment score”: 0.595.
For `YTVKRRLVFGADD [K2T]`, “normalised enrichment score” read 2.87.
`YPVKRRLVFGADD [K2P]` — result for “normalised enrichment score”: 2.85.
`YKVKRRLVFLADD [G10L]`: “normalised enrichment score” 0.937.
For `YKVKRREVFGADD [L7E]`, “normalised enrichment score” read 0.0644.
`YVVKRRLVFGADD [K2V]`: “normalised enrichment score” 1.28.
Under “normalised enrichment score”, `YKVVRRLVFGADD [K4V]` is recorded as 0.275.
`YKVKRRLVFGTDD [A11T]` — result for “normalised enrichment score”: 2.42.
Under “normalised enrichment score”, `YKVKKRLVFGADD [R5K]` is recorded as 0.759.
For `YKVKRRLVFCADD [G10C]`, “normalised enrichment score” read 1.31.
For `YKEKRRLVFGADD [V3E]`, “normalised enrichment score” read -0.185.
Under “normalised enrichment score”, `YKVKPRLVFGADD [R5P]` is recorded as 0.352.

Block 4 — read-out: binding; technique: phage display NGS; form: peptide; concentration: concentration not given; setting: normalized abundance; reference: input library
Target: UDP-N-acetylglucosamine--peptide N-acetylglucosaminyltransferase 110 kDa subunit (OGT, Homo sapiens, UniProt O15294)
Chain of UniProt O15294 (whole entry, looked up): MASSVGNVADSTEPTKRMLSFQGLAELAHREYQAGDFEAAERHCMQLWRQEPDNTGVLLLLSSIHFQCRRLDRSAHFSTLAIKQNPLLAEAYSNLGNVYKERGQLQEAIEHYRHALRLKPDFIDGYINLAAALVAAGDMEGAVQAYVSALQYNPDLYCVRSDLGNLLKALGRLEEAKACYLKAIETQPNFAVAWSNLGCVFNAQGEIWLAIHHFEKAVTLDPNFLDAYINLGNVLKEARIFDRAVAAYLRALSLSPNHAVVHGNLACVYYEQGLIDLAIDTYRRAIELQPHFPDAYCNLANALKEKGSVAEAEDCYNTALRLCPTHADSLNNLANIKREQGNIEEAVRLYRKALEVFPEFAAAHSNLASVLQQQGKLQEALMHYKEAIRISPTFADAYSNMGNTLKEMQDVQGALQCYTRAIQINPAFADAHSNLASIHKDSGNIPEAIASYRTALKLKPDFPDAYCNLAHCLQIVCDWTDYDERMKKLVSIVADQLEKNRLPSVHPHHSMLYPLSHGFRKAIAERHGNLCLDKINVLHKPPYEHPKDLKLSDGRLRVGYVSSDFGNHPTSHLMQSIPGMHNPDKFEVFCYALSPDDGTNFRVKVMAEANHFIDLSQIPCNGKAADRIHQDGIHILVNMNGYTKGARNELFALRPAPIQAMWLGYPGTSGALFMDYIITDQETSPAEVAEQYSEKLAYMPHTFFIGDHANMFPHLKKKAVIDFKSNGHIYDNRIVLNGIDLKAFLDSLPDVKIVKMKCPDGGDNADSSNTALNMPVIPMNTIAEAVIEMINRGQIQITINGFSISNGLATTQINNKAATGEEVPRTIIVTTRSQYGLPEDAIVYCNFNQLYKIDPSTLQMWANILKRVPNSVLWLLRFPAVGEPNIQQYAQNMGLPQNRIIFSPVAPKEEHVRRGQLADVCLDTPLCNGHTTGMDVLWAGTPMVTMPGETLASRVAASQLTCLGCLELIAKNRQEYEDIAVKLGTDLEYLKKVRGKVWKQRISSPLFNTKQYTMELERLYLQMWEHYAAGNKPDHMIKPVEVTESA
Under “enrichment fold change”, `QWHPTDHHQWRVHDH` is recorded as 10.4.
`STRWFHPSHYHAMFH` — result for “enrichment fold change”: 10.
`HSDPTGYLHHHHFL` — result for “enrichment fold change”: 4.39.

Block 5 — technique: aptamer microarray, sandwich; form: DNA with 2'F-ANA; medium: in vitro; concentration: 200 nM; together with: Cy3 exosite-II aptamer, 400 nM; direction: higher = stronger binding; strand: GGTTGGTGTGGTTGG
Target: Prothrombin, mature alpha-thrombin (F2, Homo sapiens, UniProt P00734)
Setting: whole 15-mer aptamer, many near background
`2'F-ANA at 1 2 3 4 7 8 12 14 15` — result for “mean fluorescence intensity”: 132 a.u.
`2'F-ANA at 1 2 3 4 6 8 13`: “mean fluorescence intensity” 123 a.u.
Under “mean fluorescence intensity”, `2'F-ANA at 1 4 5 6 7 9 11 13 15` is recorded as 171 a.u.
For `2'F-ANA at 3 9 15`, “mean fluorescence intensity” read 1040 a.u.
`2'F-ANA at 1 2 3 5 6 7 8 9 12 13 15` — result for “mean fluorescence intensity”: 93.8 a.u.
For `2'F-ANA at 3 4 5 8 14 15`, “mean fluorescence intensity” read 54.7 a.u.
`2'F-ANA at 4 5 6 8` — result for “mean fluorescence intensity”: 82.3 a.u.
`2'F-ANA at 1 2 4 5 6 8 9 12 13` — result for “mean fluorescence intensity”: 76 a.u.

Excerpt of the above (block 3):
`YKVKWRLVFGADD [R5W]` — result for “normalised enrichment score”: 0.595.
For `YTVKRRLVFGADD [K2T]`, “normalised enrichment score” read 2.87.
`YPVKRRLVFGADD [K2P]` — result for “normalised enrichment score”: 2.85.
